Measurements pooled from the literature.
Numbered parts are unrelated; each lists some results of a single study.

Sample 1
Target: Centromere-binding protein 1, full length, N-terminal tag (CBF1, Saccharomyces cerevisiae, UniProt P17106, residues 1-351)
Sequence of UniProt P17106 (whole entry, looked up): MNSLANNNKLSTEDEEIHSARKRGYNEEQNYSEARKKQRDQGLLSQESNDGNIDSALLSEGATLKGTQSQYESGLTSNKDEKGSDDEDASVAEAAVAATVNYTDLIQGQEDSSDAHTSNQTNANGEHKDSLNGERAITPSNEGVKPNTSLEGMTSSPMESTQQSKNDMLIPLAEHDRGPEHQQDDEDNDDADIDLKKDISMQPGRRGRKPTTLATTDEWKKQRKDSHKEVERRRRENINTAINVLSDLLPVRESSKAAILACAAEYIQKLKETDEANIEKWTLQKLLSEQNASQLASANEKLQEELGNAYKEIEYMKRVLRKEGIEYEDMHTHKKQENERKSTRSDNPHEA
Technique: protein-binding microarray
Molecule type: double-stranded DNA, one strand shown
Medium: in vitro
Tested at: 0.8 µM
Notes: whole 60-bp probe, no competitor
Reading: higher = stronger binding
All sequences stand within: … GTCTTGATTCGCTTGACGCTGCTG
Oligonucleotide	fluorescence intensity
CTAGCTCACGTTAGTCACATCTCAGGATTGGAATTC	590 a.u.
CTAAGAGAGAGCAAGCGGGTGAGTATTCGTTTCTTC	485 a.u.
GAAGAATCTTCGTCTCACGTGGTTTCTCAGCGTTAG	5050 a.u.
CTAGTTCTCTTTCAGGAGGTGGTGTTAAAAAAATTC	546 a.u.
GAATGGACTAAAATTCACATGAAATTCTCCTAATAG	543 a.u.

Sample 2
Target: Cyclic AMP-dependent transcription factor ATF-1, full length (ATF1, Homo sapiens, UniProt P18846, residues 1-271)
Technique: protein-binding microarray
Molecule type: hairpin DNA
Medium: in vitro
Tested at: not given
Notes: whole hairpin DNA, median over replicate spots
Relative to: not given
Reading: higher = stronger binding
Target sequence (chain): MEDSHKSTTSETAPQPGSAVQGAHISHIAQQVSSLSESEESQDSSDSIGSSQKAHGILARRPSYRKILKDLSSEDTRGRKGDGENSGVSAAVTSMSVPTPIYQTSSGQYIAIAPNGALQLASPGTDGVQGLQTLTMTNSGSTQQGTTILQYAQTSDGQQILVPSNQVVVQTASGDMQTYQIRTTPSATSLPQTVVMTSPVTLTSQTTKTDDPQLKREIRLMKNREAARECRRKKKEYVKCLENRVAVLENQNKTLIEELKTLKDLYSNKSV
Oligonucleotide	median fluorescence
GAGGCCGACGACGGCGTGCCTCCTGGCACGCCGTCGTCGGCCTCACACTC (5mC at 9 15 29 35)	3680 a.u.
GAGGCCGACGACGTCCGGCCTCCTGGCCGGACGTCGTCGGCCTCACACTC (5mC at 9 15 16 28 35)	3550 a.u.
GAGGCCGGATGACGGCAGCCTCCTGGCTGCCGTCATCCGGCCTCACACTC (5mC at 30)	4690 a.u.
GAGGCCAGATGACGTCAGCCTCCTGGCTGACGTCATCTGGCCTCACACTC	13900 a.u.

Sample 3
Target: RNA binding protein fox-1 homolog 2, RRM domain, GST-SBP tag (RBFOX2, Homo sapiens, UniProt O43251-10, residues 100-194)
Technique: RNA Bind-n-Seq
Molecule type: RNA
Medium: in vitro
Tested at: 365 nM
Notes: natural RNA segment, single round, ends assumed
Relative to: no-protein control
Reading: higher = stronger binding
All sequences stand within: GGGAGUUCUACAGUCCGACGAUC … UGGAAUUCUCGGGUGCCAA
Residues (chain): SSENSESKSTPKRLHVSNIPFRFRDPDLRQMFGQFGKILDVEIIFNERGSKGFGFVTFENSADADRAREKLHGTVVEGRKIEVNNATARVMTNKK
Oligonucleotide	RBNS enrichment (R)
GUGUGGUGGAGAAGAUGCAGCCCAAGGUCACAUACAGGAGGGAUUGGGGACAAGGCAGGUGUAGGGCAGGUCAGGCCGUUGAACAUCUUCCACUCAAAUCUGCUCAGGUU	1.01
UAAUGCUUAGUGACUGUAUGAUAUUACUCAGAGUUCUGUUAGACUUUUUUUCUGCCUCGGUUCUUAUCGGCUAGGUUUGAGGUAUUUCACUGAGAACGUGAACUCGGUCU	0.495
AAGAGGGGCACAGUAAGAGGGGGAGCUGAGCUGGGCCUGCCUGCAGGAAGACCUGGCCCAGGCUGCUGUGGGCAGAGGCCCUCAUCAAGCCAAGUGGAAUGGAGCCGGCC	0.819
CGUGGCUGCUGAAAAGACACAUGUUCACAUGGAGACAAACCAAGCUGCUCGCUCUCGGCUGUAUGCACCUUCUAGACAGCAGAACGUCUGGUGGGAAGACAUGCCAGUGU	0.287
GGUUAUAUCCAGUUAUACAGGCGAGGAGGGGCUGUGGUAAAGACAGAUUAAAAGGAACAAAUGAAGUUCAUUUGGUGUGCCAGAUUGCCCCUGUCUUACAAAUCCCAGAC	0.249

Single results of other studies
Molecule	target	assay	test system	conditions	scale	measurement	value
PhoQ, residues 284 288 289 292 302 303 SQSLSM	PhoP, residues 12 14 15 18 19 NQGLL (Escherichia coli, UniProt P23836)	Sort-seq, item: YFP reporter	E. coli	PhoQ-PhoP variant library, together with: 10 µM Mg2+	relative to: high Mg2+ state, higher = stronger signaling	fold induction	1.32

Excerpt of the above (sample 3):
Oligonucleotide	RBNS enrichment (R)
AAGAGGGGCACAGUAAGAGGGGGAGCUGAGCUGGGCCUGCCUGCAGGAAGACCUGGCCCAGGCUGCUGUGGGCAGAGGCCCUCAUCAAGCCAAGUGGAAUGGAGCCGGCC	0.819
UAAUGCUUAGUGACUGUAUGAUAUUACUCAGAGUUCUGUUAGACUUUUUUUCUGCCUCGGUUCUUAUCGGCUAGGUUUGAGGUAUUUCACUGAGAACGUGAACUCGGUCU	0.495
